Measurements gathered from unrelated publications.
Compare with care: the assays were run in different laboratories. Values joined by “and” are separate records of one study, mostly repeats; a detail may differ. ± marks the error that the study gave.

Structure (SMILES)	assay	system	setting	scale	quantity	result
CC(c1cc2ccccc2s1)N(O)C(N)=O (centres unmarked)	refers to: docosahexaenoic acid	human whole blood	3 µM, added: Escherichia coli	–	amount	45300 ± 11500 pg/mL blood
N#Cc1ccc2c(c1)[C@H]1CCCN(C(=O)c3ccc4[nH]cnc4c3)[C@H]1C2	–	human, Phase II trial	240 mg once daily, day 28, adjusted mean	baseline: baseline	diastolic blood pressure change	0.8 mmHg
C[C@@H]1CCC[C@H](n2cnc(-c3cc(Cl)ccc3-n3cc(Cl)nn3)cc2=O)c2cc(ccn2)-c2c(cnn2C(F)F)NC1=O	–	dog plasma	IC2× aPTT, Actin FS reagent	–	concentration for aPTT prolongation	1000 nM
O=C(COc1ccc(Cl)cc1)NC12CC(c3nnc([C@H]4C[C@@H](OC(F)(F)F)C4)o3)(C1)C2	–	healthy human, PBMC	oral, 400 mg single dose, day 1, 4 h post-dose, median, added: sodium arsenite ex vivo	baseline: baseline	ATF4 protein change	-55.2%
C[C@@H](O)CCOC(=O)C[C@@H](C)O	refers to: insulin	human, plasma	60 min	–	log2 level	10 ± 1.12 pg/mL
CC1(C)CCC(CN2CCN(c3ccc(C(=O)NS(=O)(=O)c4ccc(NCC5CCOCC5)c([N+](=O)[O-])c4)c(Oc4cnc5[nH]ccc5c4)c3)CC2)=C(c2ccc(Cl)cc2)C1	cell kill	primary neoplastic T lymphocytes, dog 17	24 h, T-cell CLL	–	EC50	0.043 µM
c1ccc(-c2n[nH]cc2-c2ccnc3ccccc23)nc1	kinase binding, competitor, MIB/MS competition, refers to: YCK2	Candida albicans cell lysate	1 µM	baseline: DMSO	log2 fold change	0.0386
OC(CCN1CCCCC1)(c1ccccc1)C1CC2C=CC1C2 (centres unmarked)	resting-state EEG	healthy elderly humans	oral, 2 mg, eyes open, LS mean	–	EEG Alpha2-power Pz-O1	2.9 µV²
Cc1cc([C@H]2C[C@H]3[C@@H](CF)SC(N)=N[C@@]3(c3ccc(F)cc3F)CO2)on1	refers to: Aβx-40	wild-type mouse, brain	subcutaneous, 30 mg/kg, 5 h	–	brain Aβ40 level	2.2 ng/g
O=CNCc1ccc(O)cc1	ABTS radical	–	300 µg/mL	–	radical scavenging	38.4 ± 1.7%
Cc1c(NC(=O)c2cccnc2)c(=O)n(-c2ccccc2)n1C	histology	Dmd C3333Y mice, heart	dose not given	–	fibrotic area	3.8% and 5.4% and 4.6% and 3.9% and 4.2%
Nc1nc2c(ncn2[C@@H]2O[C@H](CO)[C@@H](O)[C@H]2O)c(=O)[nH]1	binding, equilibrium dialysis LC-MS	–	5 µM, thermostabilized A2AR-BRIL construct	baseline: no-protein control, direction not given	z-scored log2 fold change	0.316
COc1cc2cc(-c3ccc(CC(=O)Nc4cc(C(C)(C)C(F)(F)F)no4)cn3)cnc2cc1OC	RECIST v1.1	human RET-altered solid tumours	dose not given, phase I	–	best overall response PR	26%
CO[C@H]1CC[C@H](N2C(=O)CNc3ncc(-c4ccc(C(C)(C)O)nc4)nc32)CC1	flow cytometry	stimulated B cells, human, blood	60 mg single dose, 1.5 h, mean	baseline: baseline	pS6RP change from baseline	-67.2%
O=C1[C@H](CC[C@H](O)c2ccc(F)cc2)[C@@H](c2ccc(O)cc2)N1c1ccc(F)cc1	–	male LDLr-/- mice, Western diet	dose not given, 2 weeks	baseline: vehicle	plasma total cholesterol	decreased
Cc1n[nH]c2ccc(-c3cc(OC[C@@H](N)Cc4ccccc4)cnc3-c3ccoc3)cc12	kinase binding, competitor, MIB/MS competition, refers to: ATG1	Candida albicans cell lysate	100 nM	baseline: DMSO	log2 fold change	-0.123
O=C(O)CC[C@H](O)C(=O)O	binding, equilibrium dialysis LC-MS	–	5 µM, thermostabilized A2AR-BRIL construct	baseline: no-protein control, direction not given	z-scored log2 fold change	0.267
O=C1O[C@H]([C@@H](O)CO)C(O)=C1O	superoxide scavenging	–	160 µM	–	inhibition	66.8%
COC(=O)CCc1ccc(OCC(O)CNC(C)C)cc1 (centres unmarked)	–	healthy male humans	concentration not given, 5 min, added: saline	–	diastolic blood pressure	61.4 mm Hg
COc1cc2c3cc1Oc1cc(ccc1O)C[C@@H]1c4c(cc(OC)c(O)c4Oc4ccc(cc4)C[C@@H]3N(C)CC2)CC[N+]1(C)C	nerve stimulation ex vivo	rat diaphragm nerve-muscle preparation	300 nM	baseline: control	isometric force AUC	64.3% and 35.1% and 23% and 36.3% and 20.9% and 19.8%
CN(CCOc1ccc(CC2SC(=O)NC2=O)cc1)c1ccccn1 (racemic)	–	C57BL/6 mice, diet-induced obese, proximal tibia	–	–	BV/TV	9.5 ± 1.3%
O=C1O[C@H]([C@@H](O)CO)[C@H](O)[C@@H]1O	binding, equilibrium dialysis LC-MS	–	5 µM, thermostabilized A2AR-BRIL construct	baseline: no-protein control, direction not given	z-scored log2 fold change	0.415
COc1ccccc1[C@H](Cn1c(=O)n(C(C)(C)C(=O)O)c(=O)c2c(C)c(-c3ncco3)sc21)OC1CCOCC1	–	human	20 mg, post-treatment	–	blood Triglycerides level	194 ± 39 mg/dL
N#Cc1ccn2c(-c3ccncc3)c(-c3ccc(F)cc3)nc2c1	kinase binding, competitor, MIB/MS competition, refers to: KIN2	Candida albicans cell lysate	100 nM	baseline: DMSO	log2 fold change	-0.305
Cc1ccc(C(=O)Nc2ccc(CN3CCN(C)CC3)c(C(F)(F)F)c2)cc1C#Cc1cnc2cccnn12	platelet aggregation	platelet-rich plasma	1 µM, DMSO 100, added: collagen 2 mg/mL	–	aggregation	7.6%

Structure (SMILES)	assay	system	setting	scale	quantity	result
O=C(O)CNC(=O)Cc1ccccc1	–	ventricular cardiomyocytes, C57BL/6 mouse	dose not given, 0.296 s	–	sarcomere length	1.7 µm
O=C(CO)[C@@H](O)[C@H](O)CO	binding, equilibrium dialysis LC-MS	–	5 µM, thermostabilized A2AR-BRIL construct	baseline: no-protein control, direction not given	z-scored log2 fold change	-0.0354
Cc1noc(C)c1-c1cc(C(O)(c2ccccn2)c2ccccn2)c2nc(C3CC3)[nH]c2c1	refers to: HEXIM1 expression	human, peripheral blood	3 mg, day 1, 1599 study	–	maximum induction	9.9%
NC(=O)c1ccc[n+]([C@@H]2O[C@H](COP(=O)([O-])OP(=O)(O)OC[C@H]3O[C@@H](n4cnc5c(N)ncnc54)[C@H](OP(=O)(O)O)[C@@H]3O)[C@@H](O)[C@H]2O)c1	binding, equilibrium dialysis LC-MS	–	5 µM, thermostabilized A2AR-BRIL construct	baseline: no-protein control, direction not given	z-scored log2 fold change	-0.111
C=CCn1c(=O)c2cnc(Nc3ccc(N4CCN(C)CC4)cc3)nc2n1-c1ccc2c(n1)[C@@](O)(CC)CC2	–	MDA-MB-436 xenograft, NOD/SCID mouse	oral, 60 mg/kg once daily for 38 days, day 40	–	tumour volume difference	726 ± 37.6 mm3
C[C@H](Oc1ccc(Br)cc1-c1ccon1)C(=O)O	muscle velocity recovery cycles	human, tibialis anterior muscle	1200 mg single dose, 3.5 h post-dose, frequency ramp, first response at 30 Hz	–	latency change	95.6%
O=P(O)(O)C(Cl)(Cl)P(=O)(O)O	immunostaining	mouse, SAH model, meninges	dose not given, day 7	baseline: total area	Iba1-positive area	2.86%
CC(C)NCC(O)c1ccc(O)c(O)c1 (centres unmarked)	–	ventricular cardiomyocytes, C57BL/6 mouse	dose not given, 0.244 s	–	sarcomere length	1.58 µm
Cc1ccc(Nc2c(F)cccc2Cl)c(CC(=O)O)c1	bioactivation, refers to: dansyl glutathione adduct M6a	human	pathway 3	–	Km	94 µM
CCN1CCN(Cc2ccc(Nc3ncc(F)c(-c4cc(F)c5nc6n(c5c4)[C@H](C)CCC6)n3)nc2)CC1	–	human advanced solid tumours	200 mg, phase Ia monotherapy RECIST 1.1	–	objective response rate	0%
O=C(/C=C/c1ccc(O)c(O)c1/C=C/c1ccc(O)c(O)c1)O[C@H](Cc1ccc(O)c(O)c1)C(=O)O	–	isolated myocardial tissue	10 µM	–	LVEDP	2.68 mmHg
CC(=O)N[C@H]1[C@@H](OP(=O)(O)OP(=O)(O)OC[C@H]2O[C@@H](n3ccc(=O)[nH]c3=O)[C@H](O)[C@@H]2O)O[C@H](CO)[C@H](O)[C@@H]1O	binding, equilibrium dialysis LC-MS	–	5 µM, thermostabilized A2AR-BRIL construct	baseline: no-protein control, direction not given	z-scored log2 fold change	0.0789
NC1(C(=O)N[C@@H](CCO)c2ccc(Cl)cc2)CCN(c2nc[nH]c3nccc2-3)CC1	RECIST v1.1	human mCRPC patients	dose not given, added: enzalutamide	–	RECIST response rate	11.1%
NC(=O)c1cnc2[nH]ccc2c1N[C@@H]1[C@@H]2CC3C[C@H]1C[C@@](O)(C3)C2	flow cytometry, refers to: CD4+ memory T cells	Japanese healthy subjects, peripheral blood	oral, 100 mg twice daily, day 7	–	change from baseline	-0.72%
N[C@@H](CC(=O)N1CCn2c(nnc2C(F)(F)F)C1)Cc1cc(F)c(F)cc1F	refers to: C-reactive protein	type 2 diabetes patients on metformin, plasma	oral, 100 mg once daily, 28 weeks	–	hsCRP	2.3 mg/L
N#Cc1ccc2c(-c3ccncc3)c(-c3ccc(F)cc3)nn2c1	kinase binding, competitor, MIB/MS competition, refers to: RIM11	Candida albicans cell lysate	10 µM	baseline: DMSO	log2 fold change	0.2
O=C(O)[C@@H](O)[C@@H](O)[C@H](O)[C@@H](O)C(=O)O	binding, equilibrium dialysis LC-MS	–	5 µM, thermostabilized A2AR-BRIL construct	baseline: no-protein control, direction not given	z-scored log2 fold change	0.172
COc1nc(-c2cc(C)c(N[C@@H](C)c3cc(F)cc(F)c3)nn2)ccc1-n1cnc(C)c1	refers to: Aβ40	rat Sprague-Dawley male, CSF	oral, 25 mg/kg daily for 9 days, 4 h after dose	baseline: vehicle	change in level	66%
C[C@H]1C[C@H]2CSC(N)=N[C@@]2(c2nc(NC(=O)c3ccc(OC(F)F)cn3)cs2)CO1	refers to: Aβx-40	healthy adults, plasma	5 mg once daily, day 7	baseline: placebo	percent change from baseline	-41.1%
CCOC(=O)NCc1ccc(O)cc1	DPPH radical	–	300 µg/mL	–	radical scavenging	7.33 ± 1.57%
NC(=O)c1ccc[n+](C2OC(COP(=O)(O)OP(=O)(O)OCC3OC(n4cnc5c(=O)[nH]cnc54)C(O)C3O)C(O)C2O)c1 (centres unmarked)	binding, equilibrium dialysis LC-MS	–	5 µM, thermostabilized A2AR-BRIL construct	baseline: no-protein control, direction not given	z-scored log2 fold change	0.131
COc1ccc(-c2cncc(N[C@@H](C)c3cccc(NC(=O)c4cncc(C)c4)c3)n2)cc1OC	refers to: rno-miR-329-3p	rat SU5416/hypoxia model, lung	dose not given, unit not given	baseline: SU5416/hypoxia vehicle	delta delta Ct	-0.117
CSCCNc1nc(SCCC(F)(F)F)nc2c1ncn2[C@@H]1O[C@H](COP(=O)(O)OP(=O)(O)C(Cl)(Cl)P(=O)(O)O)[C@@H](O)[C@H]1O	platelet aggregation, light transmittance aggregometry	human, platelet-rich plasma	dose not given, 30 min, IPA above 90 %, added: TRAP 5 µM	baseline: patients	patients with IPA above threshold	5.1%
Cc1cn(-c2ccc3n(c2=O)CCN([C@@H](C)[C@@H]2CC[C@H](c4cc(F)c(Cl)cc4C(F)(F)F)O2)C3=O)cn1	refers to: Aβ40	human, cerebrospinal fluid	300 mg single dose, Tmax	baseline: placebo-adjusted baseline	change in CSF level	-22.3%
COc1cc(Nc2ncc3c(n2)-c2ccc(Cl)cc2C(c2c(F)cccc2OC)=NC3)ccc1C(=O)O	–	female NOD/scid mice, ALL-2 B-precursor ALL xenograft	10.4 mg/kg, 5 days weekly, score scale 0 to 10	direction not given	median response score	8

Some of these lines once more:
Structure (SMILES)	assay	system	setting	scale	quantity	result
Nc1nc2c(ncn2[C@@H]2O[C@H](CO)[C@@H](O)[C@H]2O)c(=O)[nH]1	binding, equilibrium dialysis LC-MS	–	5 µM, thermostabilized A2AR-BRIL construct	baseline: no-protein control, direction not given	z-scored log2 fold change	0.316
O=C1[C@H](CC[C@H](O)c2ccc(F)cc2)[C@@H](c2ccc(O)cc2)N1c1ccc(F)cc1	–	male LDLr-/- mice, Western diet	dose not given, 2 weeks	baseline: vehicle	plasma total cholesterol	decreased
CC(c1cc2ccccc2s1)N(O)C(N)=O (centres unmarked)	refers to: docosahexaenoic acid	human whole blood	3 µM, added: Escherichia coli	–	amount	45300 ± 11500 pg/mL blood
Cc1noc(C)c1-c1cc(C(O)(c2ccccn2)c2ccccn2)c2nc(C3CC3)[nH]c2c1	refers to: HEXIM1 expression	human, peripheral blood	3 mg, day 1, 1599 study	–	maximum induction	9.9%
CO[C@H]1CC[C@H](N2C(=O)CNc3ncc(-c4ccc(C(C)(C)O)nc4)nc32)CC1	flow cytometry	stimulated B cells, human, blood	60 mg single dose, 1.5 h, mean	baseline: baseline	pS6RP change from baseline	-67.2%
COc1ccccc1[C@H](Cn1c(=O)n(C(C)(C)C(=O)O)c(=O)c2c(C)c(-c3ncco3)sc21)OC1CCOCC1	–	human	20 mg, post-treatment	–	blood Triglycerides level	194 ± 39 mg/dL
C[C@H]1C[C@H]2CSC(N)=N[C@@]2(c2nc(NC(=O)c3ccc(OC(F)F)cn3)cs2)CO1	refers to: Aβx-40	healthy adults, plasma	5 mg once daily, day 7	baseline: placebo	percent change from baseline	-41.1%
